# Published values pooled from the literature.
# A part holds a random share of what one study measured.

# Set 1
# Target: Max dimerization protein 1, bHLH-zipper, MAX partner unstated (MXD1, Homo sapiens, UniProt Q05195, residues 56-136)
# Technique: protein-binding microarray
# Form: double-stranded DNA, one strand shown
# Matrix: in vitro
# Concentration: not given
# Notes: k-mer, scored over probes, only values ≥0.25
# Direction: higher = stronger binding
# Construct (chain): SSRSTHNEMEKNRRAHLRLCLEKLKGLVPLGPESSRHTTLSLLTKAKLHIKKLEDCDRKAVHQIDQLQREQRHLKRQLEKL
Sequence,E-score
ACGCGGTG,0.29
ACCCCCCC,0.28
CCCGCCAC,0.343
AGCATGGC,0.404
CGGACACG,0.329
AGGCATGA,0.302
AAAGCATG,0.394

# Set 2
# Target: Prothrombin, mature alpha-thrombin (F2, Homo sapiens, UniProt P00734)
# Technique: aptamer microarray, sandwich
# Form: DNA with 2'F-ANA
# Matrix: in vitro
# Concentration: 200 nM
# Notes: whole 15-mer aptamer, many near background
# With: Cy3 exosite-II aptamer, 400 nM
# Direction: higher = stronger binding
# Sequence: GGTTGGTGTGGTTGG
Modification,mean fluorescence intensity [a.u.]
2'F-ANA at 1 2 3 4 5 7 9 14,69.2
2'F-ANA at 1 2 3 7 9 11 12 13 14,115
2'F-ANA at 2 3 11 12 14 15,458
2'F-ANA at 2 3 4 6 11 14 15,226
2'F-ANA at 1 2 4 6 8 9 10 11 12 13 14 15,53.4
2'F-ANA at 3 4 7 9 12 13 15,708

# Set 3
# Target: Sal-like protein 4, full length isoform A (SALL4, Homo sapiens, UniProt Q9UJQ4, residues 1-1053)
# Chain of UniProt Q9UJQ4 (whole entry, looked up): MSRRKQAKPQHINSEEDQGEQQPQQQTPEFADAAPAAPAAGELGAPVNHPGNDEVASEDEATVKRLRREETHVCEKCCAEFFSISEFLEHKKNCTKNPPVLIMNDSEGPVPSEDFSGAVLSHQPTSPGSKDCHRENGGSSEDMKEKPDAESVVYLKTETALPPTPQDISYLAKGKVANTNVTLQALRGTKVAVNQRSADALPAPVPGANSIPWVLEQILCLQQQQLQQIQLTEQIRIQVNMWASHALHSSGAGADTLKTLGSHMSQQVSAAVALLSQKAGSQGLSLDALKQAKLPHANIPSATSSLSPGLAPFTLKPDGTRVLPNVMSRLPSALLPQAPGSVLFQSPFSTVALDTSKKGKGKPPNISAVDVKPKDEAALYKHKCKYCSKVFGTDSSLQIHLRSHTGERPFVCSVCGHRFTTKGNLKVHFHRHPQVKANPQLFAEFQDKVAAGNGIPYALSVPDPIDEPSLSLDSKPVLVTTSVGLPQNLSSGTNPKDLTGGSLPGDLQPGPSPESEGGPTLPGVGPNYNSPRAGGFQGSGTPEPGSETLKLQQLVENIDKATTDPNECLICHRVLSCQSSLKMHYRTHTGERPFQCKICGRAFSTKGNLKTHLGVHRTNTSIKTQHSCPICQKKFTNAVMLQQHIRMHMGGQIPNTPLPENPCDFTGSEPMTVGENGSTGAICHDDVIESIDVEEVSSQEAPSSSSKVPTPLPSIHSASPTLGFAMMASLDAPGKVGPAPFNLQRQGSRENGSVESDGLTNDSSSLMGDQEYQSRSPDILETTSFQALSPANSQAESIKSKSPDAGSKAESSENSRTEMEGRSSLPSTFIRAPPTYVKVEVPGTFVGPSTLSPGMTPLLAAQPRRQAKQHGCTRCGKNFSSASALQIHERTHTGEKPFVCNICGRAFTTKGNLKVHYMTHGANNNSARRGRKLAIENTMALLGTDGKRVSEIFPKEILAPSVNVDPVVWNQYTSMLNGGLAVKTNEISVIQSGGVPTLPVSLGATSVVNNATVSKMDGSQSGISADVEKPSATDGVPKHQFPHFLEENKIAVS
# Technique: universal PBM
# Form: double-stranded DNA, one strand shown
# Matrix: in vitro
# Concentration: 600 nM
# Notes: 8-mer, flanks averaged, mean of replicates
# Direction: higher = stronger binding
Sequence,E-score
GAATAGCA,0.142
CACATAAA,0.312
GATGCAGC,-0.0798
ATCCCTGA,-0.0728
AGCAGCGA,-0.0322

# Further values, each from its own experiment
Substance,target,assay,test system,setting,scale,quantity,value
"PhoQ, residues 284 288 289 292 302 303 GTAMQF","PhoP, residues 12 14 15 18 19 LHSVW (Escherichia coli, UniProt P23836)","Sort-seq, item: YFP reporter",E. coli,"PhoQ-PhoP variant library, with: 10 µM Mg2+","reference: high Mg2+ state, higher = stronger signaling",fold induction,15.8

# A few entries again (set 2):
Modification,mean fluorescence intensity [a.u.]
2'F-ANA at 1 2 3 4 5 7 9 14,69.2
2'F-ANA at 3 4 7 9 12 13 15,708
